Measured values of several laboratories.
Compare with care: the assays were run in different laboratories. ± gives the spread as reported.

SMILES	cell line	assay	system	conditions	scale	endpoint	result
N#C[C@H](C[C@@H]1CCCNC1=O)NC(=O)[C@H](CC1CC1)NC(=O)c1cc2cccc(Cl)c2[nH]1	cryopreserved human hepatocytes	refers to: CYP3A4		10 µM, 72 h	relative to: vehicle	mRNA level	≤ 26.4 fold
CC(=O)OC[C@H]1O[C@@H](Oc2cc(O)cc3cc4oc(C)cc(=O)c4c(O)c23)[C@H](O)[C@@H](O)[C@@H]1O	HepaRG co-cultured with HK-2	MTT		66.67 µM, 48 h	relative to: untreated control	cell viability	80.1 ± 22%
CN(N=O)[C@H]1CC[C@@H](c2ccc(Cl)c(Cl)c2)c2ccccc21	TK6 expressing CYP2B6			0.01 µM, 4 h, without S9	relative to: vehicle	relative survival	84.5%
Cc1cccc(C)c1N(Cn1cccn1)C(=O)CCl	MCF7 AREc32 cells	cell confluency, IncuCyte imaging		24 h, nominal concentration		IC10	254 µM
CC(=O)c1c(O)c(C)c(O)c(Cc2c(O)c3c(c(C(=O)/C=C/c4ccccc4)c2O)OC(C)(C)C=C3)c1O	MRC-5, mock-infected	nuclei count		96 h		LD50	20.3 µM
Nc1nc2c(ncn2COCCO)c(=O)[nH]1	HEL	cell morphology				minimal cytotoxic concentration	> 250 µM
COc1ccc2c(c1OC)C(=O)c1c(cc(C)c(O)c1OC)C2=O	HK-2 co-cultured with HepaRG	MTT		133.33 µM, 48 h	relative to: untreated control	cell viability	39 ± 1.67%
O=S(=O)(O)C(F)(F)C(F)(F)C(F)(F)C(F)(F)F	hTERT-RPTEC-OAT1	LDH release	culture medium	concentration not given, 24 h, 96-well plate		LDH activity in medium	4.91 mU/mL
O=C(O)Cc1ccccc1Nc1c(Cl)cccc1Cl	3D spheroids			2 days		cytotoxic concentration	100 µM
O=S(=O)(c1ccc(O)cc1)c1ccc(O)cc1	HepG2 spheroids, dissociated	annexin V-FITC/PI flow cytometry		1 µM, 96 h		viable cells	32.2 ± 19.3%
O=c1ccc2ccccc2o1	HepaRG 3D spheroids	glutathione content		72 h, high-content imaging		point of departure	514 µM
CC[C@H](C)[C@H](NC(=O)CN)C(=O)NCC(=O)N[C@@H](C)C(=O)N[C@H](C(=O)N[C@@H](CC(C)C)C(=O)N[C@@H](CCCCN)C(=O)N[C@H](C(=O)N[C@@H](CC(C)C)C(=O)N[C@H](C(=O)N[C@H](C(=O)NCC(=O)N[C@@H](CC(C)C)C(=O)N1CCC[C@H]1C(=O)N[C@@H](C)C(=O)N[C@@H](CC(C)C)C(=O)N[C@H](C(=O)N[C@@H](CO)C(=O)N[C@@H](Cc1c[nH]c2ccccc12)C(=O)N[C@H](C(=O)N[C@@H](CCCCN)C(=O)N[C@@H](CCCNC(=N)N)C(=O)N[C@@H](CCCCN)C(=O)N[C@@H](CCCNC(=N)N)C(=O)N[C@@H](CCC(N)=O)C(=O)N[C@@H](CCC(N)=O)C(N)=O)[C@@H](C)CC)[C@@H](C)CC)[C@@H](C)O)[C@@H](C)O)C(C)C)C(C)C	IPEC-J2, HEK293 and HCE-T	MTT				lowest toxic concentration	8 µM
O=C(O)C(F)(F)C(F)(F)C(F)(F)C(F)(F)C(F)(F)C(F)(F)C(F)(F)C(F)(F)C(F)(F)C(F)(F)F	hTERT-RPTEC-OAT1	LDH release	culture medium	concentration not given, 24 h, 96-well plate		LDH activity in medium	3.94 mU/mL
CC(=O)NCC(=O)N[C@@H](Cc1ccccc1)C(=O)N[C@H](C=O)Cc1c[nH]cn1	HEL	cell morphology				minimum cytotoxic concentration	> 100 µM
Oc1ccc(C(c2ccc(O)cc2)(C(F)(F)F)C(F)(F)F)cc1	HepG2 spheroids, dissociated	annexin V-FITC/PI flow cytometry		0.10 µM, 96 h		viable cells	28.5 ± 8.59%
Cc1cc2c(c(O)c1O)C(=O)c1c(O)cc(O)cc1C2=O	HepaRG co-cultured with HK-2	MTT		66.67 µM, 48 h	relative to: untreated control	cell viability	85.5 ± 12.7%
CC[C@H](C)[C@H](NC(=O)[C@H](CCCCN)NC(=O)[C@H](CCC(N)=O)NC(=O)[C@@H](NC(=O)[C@@H](NC(=O)[C@H](CCCNC(=N)N)NC(=O)[C@H](CCCCN)NC(=O)[C@H](Cc1ccccc1)NC(=O)CN)[C@@H](C)CC)C(C)C)C(=O)N[C@@H](CCCNC(=N)N)C(=O)N[C@@H](CC(=O)O)C(=O)N[C@@H](Cc1ccccc1)C(=O)N[C@@H](CC(C)C)C(=O)N[C@@H](CCCNC(=N)N)C(=O)N[C@@H](CC(N)=O)C(=O)N[C@@H](CC(C)C)C(=O)N[C@H](C(N)=O)C(C)C	HEK293	cell viability, MTS		serum-free		LC50	13 µM
CC[C@H](C)[C@H](NC(=O)CN)C(=O)NCC(=O)N[C@@H](CCCCN)C(=O)N[C@@H](Cc1ccccc1)C(=O)N[C@@H](CC(C)C)C(=O)N[C@@H](CCCCN)C(=O)N[C@@H](CCCCN)C(=O)N[C@@H](C)C(=O)N[C@@H](CCCCN)C(=O)N[C@@H](CCCCN)C(=O)N[C@@H](Cc1ccccc1)C(=O)NCC(=O)N[C@@H](CCCCN)C(=O)N[C@@H](C)C(=O)N[C@@H](Cc1ccccc1)C(=O)N[C@H](C(=O)N[C@@H](CCCCN)C(=O)N[C@H](C(=O)N[C@@H](CC(C)C)C(=O)N[C@@H](CCCCN)C(=O)N[C@@H](CCCCN)C(N)=O)[C@@H](C)CC)C(C)C	rat erythrocytes			200 µM, 60 min, 37 °C		hemolysis	13.5 ± 1.8%
CC1=C(O)C(=O)C=C2C1=CC=C1[C@@]2(C)CC[C@@]2(C)[C@@H]3C[C@](C)(C(=O)O)CC[C@]3(C)CC[C@]12C	COS-7	WST-8		3 µM, 24 h, 0.1% DMSO, unit not given	relative to: vehicle control	metabolic activity	0.69 ± 0.31
O=S(=O)(Nc1ccc(-c2n[nH]c(=S)o2)cc1)c1ccc(C(F)(F)F)cc1	HEK-293T	MTT		up to 100 µM		viability	not toxic
CC[C@H](C)[C@H](NC(=O)CN)C(=O)N[C@@H](Cc1c[nH]c2ccccc12)C(=O)N[C@@H](CC(=O)O)C(=O)N[C@@H](CCSC)C(=O)N[C@H](C(=O)N[C@@H](CCCNC(=N)N)C(=O)N[C@@H](CCCCN)C(=O)N[C@H](C(=O)N[C@@H](CCCNC(=N)N)C(=O)N[C@H](C(=O)N[C@H](C(=O)N[C@H](C(=O)N[C@@H](CCCNC(=N)N)C(=O)N[C@@H](CCCCN)C(=O)N[C@@H](C)C(=O)N[C@@H](CCCCN)C(=O)N[C@@H](CCC(N)=O)C(=O)N[C@H](C(=O)N[C@@H](CCCCN)C(=O)N[C@H](C(=O)N[C@@H](Cc1ccccc1)C(=O)N[C@H](C(=O)N[C@@H](CC(N)=O)C(=O)NCC(=O)N[C@@H](CCCCN)C(=O)NCC(=O)N[C@H](C(=O)N[C@@H](CCC(N)=O)C(=O)O)C(C)C)[C@@H](C)CC)[C@@H](C)O)[C@@H](C)CC)[C@@H](C)CC)C(C)C)[C@@H](C)O)C(C)C)[C@@H](C)CC	HaCaT	cytotoxicity, MTT		24 h, 37 °C		IC50	23.9 µM
O=C(O)C(F)(F)C(F)(F)C(F)(F)C(F)(F)C(F)(F)F	hTERT-RPTEC-OAT1	LDH release	culture medium	concentration not given, 24 h, 96-well plate		LDH activity in medium	4.64 mU/mL
CC[C@H](C)[C@H](NC(=O)[C@H](C)NC(=O)[C@H](CO)NC(=O)[C@@H](NC(=O)[C@H](CCCCN)NC(=O)[C@H](CCSC)NC(=O)[C@H](CC(C)C)NC(=O)[C@H](CO)NC(=O)[C@H](CC(C)C)NC(=O)[C@@H](N)CCCNC(=N)N)[C@@H](C)O)C(=O)N[C@@H](CCCCN)C(=O)N[C@@H](CCCCN)C(=O)N[C@H](C(=O)N[C@@H](CCCNC(=N)N)C(=O)N[C@@H](CC(N)=O)C(=O)N1CCC[C@H]1C(=O)N[C@@H](CCCCN)C(=O)NCC(=O)N1CCC[C@H]1C(=O)N[C@@H](CC(C)C)C(=O)N[C@H](C(=O)N[C@@H](CC(C)C)C(=O)N[C@@H](CCCNC(=N)N)C(=O)N[C@@H](CC(C)C)C(=O)NCC(=O)N[C@@H](C)C(=O)N[C@@H](C)C(=O)N1CCC[C@H]1C(=O)N[C@H](C(=O)N[C@H](C(=O)N[C@@H](CCC(N)=O)C(=O)N1CCC[C@H]1C(=O)N[C@H](C(=O)N[C@@H](CCCNC(=N)N)C(=O)N[C@@H](CCCNC(=N)N)C(=O)N[C@H](C(=O)N[C@@H](Cc1ccccc1)C(=O)N1CCC[C@H]1C(=O)N[C@@H](CCCNC(=N)N)C(=O)O)C(C)C)[C@@H](C)O)[C@@H](C)O)C(C)C)[C@@H](C)CC)[C@@H](C)CC	HaCaT	cell viability, MTT				CC50	220 µM

Excerpt of the above:
SMILES	cell line	assay	system	conditions	scale	endpoint	result
O=C(O)Cc1ccccc1Nc1c(Cl)cccc1Cl	3D spheroids			2 days		cytotoxic concentration	100 µM
O=S(=O)(c1ccc(O)cc1)c1ccc(O)cc1	HepG2 spheroids, dissociated	annexin V-FITC/PI flow cytometry		1 µM, 96 h		viable cells	32.2 ± 19.3%
